# Assay results gathered from unrelated publications.
# Each line is one published result; not all experiments were run side by side. ± marks the error that the study gave.
# Target: Urease (Canavalia ensiformis, UniProt P07374)
# Sequence of UniProt P07374 (whole entry, looked up): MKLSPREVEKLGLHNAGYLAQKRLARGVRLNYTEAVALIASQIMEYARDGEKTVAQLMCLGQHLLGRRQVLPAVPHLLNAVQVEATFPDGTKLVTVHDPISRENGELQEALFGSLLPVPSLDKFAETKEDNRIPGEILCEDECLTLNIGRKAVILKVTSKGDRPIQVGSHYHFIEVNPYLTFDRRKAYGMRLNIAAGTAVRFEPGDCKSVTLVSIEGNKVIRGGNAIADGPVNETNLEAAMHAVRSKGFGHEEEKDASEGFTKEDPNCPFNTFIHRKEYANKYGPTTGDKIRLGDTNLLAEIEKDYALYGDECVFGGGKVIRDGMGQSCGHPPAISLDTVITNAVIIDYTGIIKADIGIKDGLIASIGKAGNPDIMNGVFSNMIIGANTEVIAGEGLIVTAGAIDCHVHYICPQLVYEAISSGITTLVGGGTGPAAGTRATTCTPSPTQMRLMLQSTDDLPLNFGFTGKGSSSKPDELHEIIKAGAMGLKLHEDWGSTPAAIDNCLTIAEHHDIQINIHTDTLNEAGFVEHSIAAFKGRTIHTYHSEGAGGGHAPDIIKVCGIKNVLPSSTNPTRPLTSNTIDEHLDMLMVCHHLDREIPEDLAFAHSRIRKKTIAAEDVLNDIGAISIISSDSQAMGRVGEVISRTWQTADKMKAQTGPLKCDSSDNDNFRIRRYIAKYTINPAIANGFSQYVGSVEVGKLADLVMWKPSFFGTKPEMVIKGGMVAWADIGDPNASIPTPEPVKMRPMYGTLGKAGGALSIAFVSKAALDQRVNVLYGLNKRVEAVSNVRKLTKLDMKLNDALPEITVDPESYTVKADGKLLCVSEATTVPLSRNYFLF
# Mode: inhibitor
SMILES,assay,setting,IC50
COc1ccc(-c2nnc3sc(COc4ccc(F)cc4)nn23)cc1,enzyme activity,,6.65 µM
COC(=O)C1=C(C)NC(=O)CC1c1ccc([N+](=O)[O-])cc1 (stereo not shown),"enzyme activity, absorbance",pH 7.4,29.1 µM
CC(O)c1nc2ccc([N+](=O)[O-])cc2[nH]1 (racemic),"enzyme activity, absorbance",,66 µM
COC(=O)C1=C(C)NC(=O)CC1c1ccc(Cl)cc1 (stereo not shown),"enzyme activity, absorbance",pH 7.4,84.1 µM
CC(O)c1nc2ccc(Br)cc2[nH]1 (racemic),"enzyme activity, absorbance",,46 µM
COc1cc(-c2nc3cc(C(=O)N4CCN(c5ccccc5)CC4)ccc3[nH]2)ccc1OCC(=O)Nc1cccc(C)c1,,pH 7.4,0.86 ± 0.08 µM
O=C(N/N=C/c1cccc(O)c1)c1ccc(C(=O)N/N=C/c2cccc(O)c2)cc1,enzyme activity,,63.1 µM
COc1ccc(-c2nnc3n2N=C(c2ccc(-c4ccccc4)cc2)CS3)cc1,enzyme activity,,3.51 µM
O=C(N/N=C/c1ccc(O)cc1O)c1ccc(C(=O)N/N=C/c2ccc(O)cc2O)cc1,enzyme activity,,51.5 µM
COC(=O)C1=C(C)NC(=O)CC1c1ccc(OC)cc1 (stereo not shown),"enzyme activity, absorbance",pH 7.4,120 µM
O=C(N/N=C/c1cccc(O)c1O)c1ccc(C(=O)N/N=C/c2cccc(O)c2O)cc1,enzyme activity,,49.2 µM
COC(=O)C1=C(C)NC(=O)CC1c1ccc(OC)cc1OC (stereo not shown),"enzyme activity, absorbance",pH 7.4,102 µM
COc1ccc(-c2nnc3sc(COc4ccccc4O)nn23)cc1,enzyme activity,,32.9 µM

# Excerpt of the above:
SMILES,assay,setting,IC50
CC(O)c1nc2ccc(Br)cc2[nH]1 (racemic),"enzyme activity, absorbance",,46 µM
